Published values gathered from unrelated publications.
Each numbered part is a random draw from the data of one study; scales do not carry over between parts. Positions count from the first letter of the parent shown.

Study 1
Target: Protein C-ets-1 (ETS1, Homo sapiens, UniProt P14921, residues 1-441, K379A, full length assumed)
Method: protein-binding microarray
Molecule type: double-stranded DNA, one strand shown
Matrix: in vitro
Tested at: not given
Setting: k-mer, scored over probes, only values ≥0.25
Reading: higher = stronger binding
Construct (chain): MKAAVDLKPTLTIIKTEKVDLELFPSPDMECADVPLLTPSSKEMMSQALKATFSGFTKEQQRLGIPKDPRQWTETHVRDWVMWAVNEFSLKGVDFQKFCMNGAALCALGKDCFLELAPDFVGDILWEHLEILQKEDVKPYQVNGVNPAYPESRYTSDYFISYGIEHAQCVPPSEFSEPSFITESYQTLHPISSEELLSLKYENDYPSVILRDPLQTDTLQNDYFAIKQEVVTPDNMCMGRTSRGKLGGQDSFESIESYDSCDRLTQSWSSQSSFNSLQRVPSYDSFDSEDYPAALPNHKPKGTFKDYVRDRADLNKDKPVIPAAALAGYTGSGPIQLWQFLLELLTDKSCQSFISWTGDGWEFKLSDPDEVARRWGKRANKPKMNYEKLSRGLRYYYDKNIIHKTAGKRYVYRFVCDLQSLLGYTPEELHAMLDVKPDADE
| Sequence | E-score |
| --- | --- |
| CATTCCGG | 0.35 |
| ACCCGGAA | 0.356 |
| ATACAACC | 0.257 |
| CTATAATA | 0.27 |
| CGCCCACC | 0.273 |
| CCGACGCG | 0.282 |
| ACGCAACC | 0.278 |
| CGGTGACA | 0.269 |

Study 2
Target: UDP-N-acetylglucosamine--peptide N-acetylglucosaminyltransferase 110 kDa subunit (OGT, Homo sapiens, UniProt O15294)
Chain of UniProt O15294 (whole entry, looked up): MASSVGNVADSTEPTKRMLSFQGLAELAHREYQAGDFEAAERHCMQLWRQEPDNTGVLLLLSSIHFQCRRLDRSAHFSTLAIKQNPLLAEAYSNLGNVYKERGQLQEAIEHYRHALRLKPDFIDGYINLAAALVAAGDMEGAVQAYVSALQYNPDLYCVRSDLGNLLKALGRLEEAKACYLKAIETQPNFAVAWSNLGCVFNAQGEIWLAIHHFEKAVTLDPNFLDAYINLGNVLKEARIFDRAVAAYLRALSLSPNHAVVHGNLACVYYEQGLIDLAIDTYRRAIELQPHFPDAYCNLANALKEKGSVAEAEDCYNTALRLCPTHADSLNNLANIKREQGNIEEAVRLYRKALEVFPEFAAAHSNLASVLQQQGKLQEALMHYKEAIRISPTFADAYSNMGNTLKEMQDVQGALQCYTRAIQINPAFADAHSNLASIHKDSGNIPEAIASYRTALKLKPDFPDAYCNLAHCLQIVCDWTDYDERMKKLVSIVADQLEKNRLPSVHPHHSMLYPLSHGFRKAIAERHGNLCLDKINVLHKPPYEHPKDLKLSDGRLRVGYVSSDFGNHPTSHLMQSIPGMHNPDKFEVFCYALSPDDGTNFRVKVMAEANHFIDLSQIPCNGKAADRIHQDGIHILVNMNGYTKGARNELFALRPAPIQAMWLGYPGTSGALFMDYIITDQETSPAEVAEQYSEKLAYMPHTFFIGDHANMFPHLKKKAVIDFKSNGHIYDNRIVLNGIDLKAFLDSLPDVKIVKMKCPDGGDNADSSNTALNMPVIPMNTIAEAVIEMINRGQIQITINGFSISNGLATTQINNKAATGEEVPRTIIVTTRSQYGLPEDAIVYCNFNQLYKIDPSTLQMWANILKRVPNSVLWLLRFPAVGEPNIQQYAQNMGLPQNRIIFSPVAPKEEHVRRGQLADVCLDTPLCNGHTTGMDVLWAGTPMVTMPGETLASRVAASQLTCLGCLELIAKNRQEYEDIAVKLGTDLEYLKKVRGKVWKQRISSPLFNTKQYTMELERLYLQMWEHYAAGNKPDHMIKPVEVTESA
Effect on: binding
Method: phage display NGS
Molecule type: peptide
Reference: input library
| Molecule | minimum log2 enrichment ratio |
| --- | --- |
| QPQIHLHHHPSYTGR | 1.88 |
| HRVQFPWPHDAGHRH | 2.78 |
| GISDGMYMPWYKIRT | 1.18 |
| QPYSNYHHHAHIRYD | 2.19 |
| SFPRHQHTYHTQPSR | 2.39 |
| VFTPSYQIYIKPRQF | 2.71 |
| NSPFAPKYEITTAWH | 5.39 |
| HYIPHFPWQWDFDHH | 3.01 |
| SPFMPMYPIVPNRSD | 5.07 |
| HIHWTGESPSPHWVH | 1.32 |
| QFLHNHSDEKSHPHY | 2.3 |
| QQIPSIMPMYQIVTP | 3.55 |
| HTYDLTGPSHWFTRI | 1.17 |
| RVQIMPVYQIDIPSA | 3.72 |
| NVRFPPMYQMVWTSR | 5.06 |
| HQYHHFRDNYNQIFM | 3.42 |
| TQSFTQFMPQYPIFY | 3.03 |
| QRYGHTHMDHFSTSI | 1.7 |

Study 3
Target: inorganic phosphate, free oxyanion
Method: microfluidic competitive inhibition
Matrix: in vitro, cell-free expressed
Tested at: not given
Setting: derived from inhibition constants, unchanged parent 615000 nM
Reading: lower = stronger binding
Starting sequence: PafA, mature enzyme, eGFP fusion (Elizabethkingia meningoseptica, UniProt Q9KJX5); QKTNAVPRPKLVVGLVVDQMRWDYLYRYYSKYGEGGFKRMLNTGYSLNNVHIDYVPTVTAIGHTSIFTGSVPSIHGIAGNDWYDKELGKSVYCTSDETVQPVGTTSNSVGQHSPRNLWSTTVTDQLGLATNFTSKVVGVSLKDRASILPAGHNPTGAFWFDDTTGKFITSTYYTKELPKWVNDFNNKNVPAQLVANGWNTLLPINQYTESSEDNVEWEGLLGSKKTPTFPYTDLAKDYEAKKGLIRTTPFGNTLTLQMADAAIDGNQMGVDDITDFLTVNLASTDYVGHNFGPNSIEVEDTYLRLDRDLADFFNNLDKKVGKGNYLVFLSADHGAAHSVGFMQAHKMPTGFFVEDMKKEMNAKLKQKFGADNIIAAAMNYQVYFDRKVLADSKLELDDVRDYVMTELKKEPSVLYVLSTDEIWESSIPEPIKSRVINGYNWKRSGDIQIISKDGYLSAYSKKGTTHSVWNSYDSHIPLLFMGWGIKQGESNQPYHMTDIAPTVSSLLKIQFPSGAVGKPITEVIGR
| Change | phosphate dissociation constant [µM] |
| --- | --- |
| P154V | 449 |
| V136G | 497 |
| I245V | 552 |
| S108G | 620 |
| G438V | 203 |
| L281G | 605 |
| N470V | 487 |
| D446V | 718 |
| N379G | 579 |
| T133G | 530 |
| E299V | 518 |
| K31G | 650 |
| V13G | 498 |
| A331V | 458 |
| V287A | 839 |
| F158G | 573 |
| Y29G | 507 |
| G323A | 614 |

Study 4
Target: FOS, bZIP domain (human)
Method: DHFR protein complementation
Matrix: yeast
Setting: single substitutions, most at no-binding floor
Reference: wild-type JUN-FOS pair
Reading: higher = stronger binding
Starting sequence: JUN, bZIP domain (human); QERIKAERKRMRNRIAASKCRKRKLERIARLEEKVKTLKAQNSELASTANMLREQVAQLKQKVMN; partner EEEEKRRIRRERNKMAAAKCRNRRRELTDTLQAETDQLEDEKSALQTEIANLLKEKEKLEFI
| Change | binding fitness [natural log] |
| --- | --- |
| L45H | -1.35 |
| R30N | -0.0474 |
| K34M | -0.186 |
| L45M | -0.393 |
| T48E | -0.186 |
| S43W | -0.193 |
| R53L | -0.885 |
| K39H | -0.365 |

Some of these lines once more (study 3):
| Change | phosphate dissociation constant [µM] |
| --- | --- |
| L281G | 605 |
| G438V | 203 |
| D446V | 718 |
| V287A | 839 |
| V136G | 497 |
| I245V | 552 |
| N470V | 487 |
